Results gathered from unrelated publications.
Protocols differ between the studies behind these lines.

SMILES | tested on | assay | system | conditions | how to read | endpoint | result
Cc1ccc(CNC(=O)Cn2cc(CSc3nc4ccccc4[nH]3)nn2)cc1 | MDA-MB-231 | MTT |  | 7.81 ppm |  | viability | 34.8%
C[C@]12CC[C@@H]3c4ccc(O)cc4CC[C@H]3[C@@H]1CC[C@@H]2OC(=O)CCC1CCCC1 | MCF-10A | CellTiter-Glo |  | concentration not given | relative to: normalised, mean of replicates | viability | 102%
CC(=O)c1nn(-c2ccc(Cl)cc2)/c(=N/N=C(\C)c2ccc(NC(=O)c3ccccc3)cc2)s1 | MCF7 |  |  | 10 µM |  | viability | 4.84%
CC(C)c1c(C(=O)Nc2ccccc2)c(-c2ccccc2)c(-c2ccc(F)cc2)n1CC[C@@H](O)C[C@@H](O)CC(=O)O | MCF-10A | CellTiter-Glo |  | concentration not given | relative to: normalised, mean of replicates | viability | 91.4%
COc1cc2ncnc(Nc3ccc(Oc4ccccc4)c(C)c3C)c2cc1OC | LoVo (KRAS G13D) | cell growth, resazurin |  | 1 µM, 72 h, together with: 0 nM trametinib |  | viability | 73.3%
Nc1cccc2c1CN(C1CCC(=O)NC1=O)C2=O (centres unmarked) | bone marrow CD138+ myeloma cells | XTT |  | 0.4 µM, mean of three patients |  | viability | 94%
Oc1ncnc2[nH]ncc12 | Toxoplasma gondii | parasite growth | HFF, bradyzoite, glutamine-induced |  |  | EC50 | 30 µM
Cc1cccc(-c2[nH]c(CNc3ccccc3F)nc2-c2ccc3ncnn3c2)n1 | bone marrow CD138+ myeloma cells | XTT |  | 0.4 µM, phenol red-free RPMI |  | viability | 96%
COC1=CC(=O)C=C(OC)C1=O | MCF-10A | CellTiter-Glo |  | concentration not given | relative to: normalised, mean of replicates | viability | 80.2%
CC(=O)c1nn(-c2ccc(Cl)cc2)/c(=N/N=C(\C)c2ccc(NC(=O)c3ccc(Cl)cc3)cc2)s1 | HepG2 |  |  | 1.25 µM |  | viability | 96.1%
Nc1cccc2c1C(=O)N(C1CCC(=O)NC1=O)C2=O (centres unmarked) | bone marrow CD138+ myeloma cells | XTT |  | 3 µM, mean of three patients |  | viability | 5%
C=C[C@@]1(C)CC(=O)[C@]2(O)[C@@]3(C)[C@@H](O)CCC(C)(C)[C@@H]3[C@H](O)[C@H](OC(C)=O)[C@@]2(C)O1 | MCF-10A | CellTiter-Glo |  | concentration not given | relative to: normalised, mean of replicates | viability | 96%
CC(=O)Nc1cccc(-n2c(=O)n(C3CC3)c(=O)c3c(Nc4ccc(I)cc4F)n(C)c(=O)c(C)c32)c1 | LoVo (KRAS G13D) | resazurin |  | 6.25 nM, 72 h | relative to: DMSO | viability | 78.3%
COC(=O)C1=C(C)NC(C)=C(C(=O)OC(C)(C)CN(C)CCC(c2ccccc2)c2ccccc2)C1c1cccc([N+](=O)[O-])c1 (centres unmarked) | Toxoplasma gondii | parasite growth | HFF, bradyzoite, glutamine-induced |  |  | EC50 | 4.83 µM

Some of these lines once more:
SMILES | tested on | assay | system | conditions | how to read | endpoint | result
Cc1cccc(-c2[nH]c(CNc3ccccc3F)nc2-c2ccc3ncnn3c2)n1 | bone marrow CD138+ myeloma cells | XTT |  | 0.4 µM, phenol red-free RPMI |  | viability | 96%
